Results pooled from the literature.
Every numbered part comes from another study and shows a few of its results, in no order.
Sequence of UniProt P35968 (whole entry, looked up): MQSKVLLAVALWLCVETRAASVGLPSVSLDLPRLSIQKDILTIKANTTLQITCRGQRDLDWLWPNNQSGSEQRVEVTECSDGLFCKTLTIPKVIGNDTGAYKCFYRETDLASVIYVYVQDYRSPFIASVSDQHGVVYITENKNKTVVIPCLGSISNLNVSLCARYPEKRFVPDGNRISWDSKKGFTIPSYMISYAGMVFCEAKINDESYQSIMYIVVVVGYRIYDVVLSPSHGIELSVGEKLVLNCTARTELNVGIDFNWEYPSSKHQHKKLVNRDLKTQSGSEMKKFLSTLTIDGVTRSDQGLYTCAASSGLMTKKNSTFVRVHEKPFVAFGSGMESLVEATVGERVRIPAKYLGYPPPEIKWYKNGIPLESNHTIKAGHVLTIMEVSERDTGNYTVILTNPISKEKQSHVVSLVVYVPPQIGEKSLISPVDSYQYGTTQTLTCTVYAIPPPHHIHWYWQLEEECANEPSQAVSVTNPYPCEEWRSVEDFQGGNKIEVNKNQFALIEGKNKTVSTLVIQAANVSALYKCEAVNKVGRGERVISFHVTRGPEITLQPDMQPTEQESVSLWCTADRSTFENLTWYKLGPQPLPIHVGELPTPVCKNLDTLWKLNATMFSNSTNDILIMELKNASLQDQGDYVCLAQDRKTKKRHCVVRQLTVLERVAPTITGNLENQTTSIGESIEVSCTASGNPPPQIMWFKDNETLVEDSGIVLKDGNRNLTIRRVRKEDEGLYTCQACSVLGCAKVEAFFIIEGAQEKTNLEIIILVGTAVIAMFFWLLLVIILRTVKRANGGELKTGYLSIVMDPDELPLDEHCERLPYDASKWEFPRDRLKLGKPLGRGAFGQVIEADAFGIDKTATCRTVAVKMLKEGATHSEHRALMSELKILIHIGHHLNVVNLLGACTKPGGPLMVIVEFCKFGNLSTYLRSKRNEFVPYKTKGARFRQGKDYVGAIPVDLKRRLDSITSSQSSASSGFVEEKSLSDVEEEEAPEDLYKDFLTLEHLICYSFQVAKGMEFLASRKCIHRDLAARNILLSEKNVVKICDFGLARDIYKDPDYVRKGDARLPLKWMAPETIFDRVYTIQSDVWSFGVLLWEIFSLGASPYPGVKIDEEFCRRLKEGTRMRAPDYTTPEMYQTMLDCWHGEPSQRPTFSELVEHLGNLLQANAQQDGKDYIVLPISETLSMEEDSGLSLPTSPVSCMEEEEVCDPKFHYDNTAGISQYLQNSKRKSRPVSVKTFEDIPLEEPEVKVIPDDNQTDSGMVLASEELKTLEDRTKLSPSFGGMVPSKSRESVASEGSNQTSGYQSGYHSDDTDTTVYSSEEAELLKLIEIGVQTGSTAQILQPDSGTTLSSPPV
Sequence of UniProt Q8N568 (whole entry, looked up): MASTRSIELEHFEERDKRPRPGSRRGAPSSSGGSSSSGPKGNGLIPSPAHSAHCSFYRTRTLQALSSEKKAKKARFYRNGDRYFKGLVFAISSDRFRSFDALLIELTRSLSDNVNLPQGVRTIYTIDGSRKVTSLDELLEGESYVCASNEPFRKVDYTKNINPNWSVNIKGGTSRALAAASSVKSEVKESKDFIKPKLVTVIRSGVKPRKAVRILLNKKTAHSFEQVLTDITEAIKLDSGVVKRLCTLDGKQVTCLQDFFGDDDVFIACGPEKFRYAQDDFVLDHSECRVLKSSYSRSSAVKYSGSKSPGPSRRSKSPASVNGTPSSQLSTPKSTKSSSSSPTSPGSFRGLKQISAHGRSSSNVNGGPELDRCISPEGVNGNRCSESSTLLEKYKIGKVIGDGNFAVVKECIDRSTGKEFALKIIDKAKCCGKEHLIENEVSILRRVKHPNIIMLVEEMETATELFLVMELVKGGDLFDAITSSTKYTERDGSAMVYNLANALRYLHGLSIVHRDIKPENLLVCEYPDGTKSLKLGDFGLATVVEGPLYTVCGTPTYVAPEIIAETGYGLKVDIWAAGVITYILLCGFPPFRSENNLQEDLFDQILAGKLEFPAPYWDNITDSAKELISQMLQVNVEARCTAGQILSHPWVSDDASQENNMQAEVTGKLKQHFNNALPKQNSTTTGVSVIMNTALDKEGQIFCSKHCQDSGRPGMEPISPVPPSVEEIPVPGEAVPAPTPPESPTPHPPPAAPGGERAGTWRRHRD
Sequence of UniProt P51956 (whole entry, looked up): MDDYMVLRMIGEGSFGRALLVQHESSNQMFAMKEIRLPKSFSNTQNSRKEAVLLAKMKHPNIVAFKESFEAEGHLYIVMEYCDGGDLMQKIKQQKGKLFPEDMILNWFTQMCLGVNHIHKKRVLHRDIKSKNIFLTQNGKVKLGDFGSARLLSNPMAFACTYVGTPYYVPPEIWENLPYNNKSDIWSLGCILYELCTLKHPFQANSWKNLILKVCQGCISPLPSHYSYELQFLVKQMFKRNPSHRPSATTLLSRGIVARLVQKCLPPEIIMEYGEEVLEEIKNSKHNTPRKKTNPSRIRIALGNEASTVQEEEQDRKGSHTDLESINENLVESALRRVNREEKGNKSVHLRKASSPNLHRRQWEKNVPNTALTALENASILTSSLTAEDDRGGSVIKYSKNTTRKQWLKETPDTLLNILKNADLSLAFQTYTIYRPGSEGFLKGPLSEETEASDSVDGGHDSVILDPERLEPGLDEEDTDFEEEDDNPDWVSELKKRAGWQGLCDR
Sequence of UniProt Q96L34 (whole entry, looked up): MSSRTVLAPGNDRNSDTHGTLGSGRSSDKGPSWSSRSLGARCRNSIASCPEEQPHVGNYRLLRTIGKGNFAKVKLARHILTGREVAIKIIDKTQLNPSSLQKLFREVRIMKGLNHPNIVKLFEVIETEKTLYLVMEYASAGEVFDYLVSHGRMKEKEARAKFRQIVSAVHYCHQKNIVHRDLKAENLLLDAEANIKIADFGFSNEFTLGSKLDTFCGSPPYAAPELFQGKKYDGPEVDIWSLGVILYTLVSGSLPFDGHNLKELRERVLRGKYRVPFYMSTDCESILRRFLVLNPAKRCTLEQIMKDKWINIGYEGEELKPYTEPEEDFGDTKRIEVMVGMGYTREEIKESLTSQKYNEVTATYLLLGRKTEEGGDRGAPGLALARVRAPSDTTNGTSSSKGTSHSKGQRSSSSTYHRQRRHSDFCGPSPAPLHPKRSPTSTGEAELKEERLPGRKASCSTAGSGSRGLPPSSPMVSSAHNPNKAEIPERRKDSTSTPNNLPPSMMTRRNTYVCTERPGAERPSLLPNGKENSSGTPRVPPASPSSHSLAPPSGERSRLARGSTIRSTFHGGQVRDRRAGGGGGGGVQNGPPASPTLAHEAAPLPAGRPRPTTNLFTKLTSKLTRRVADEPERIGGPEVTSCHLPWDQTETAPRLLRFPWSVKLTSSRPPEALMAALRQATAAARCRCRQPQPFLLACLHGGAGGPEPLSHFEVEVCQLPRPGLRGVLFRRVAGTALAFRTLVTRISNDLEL
Sequence of UniProt P27037 (whole entry, looked up): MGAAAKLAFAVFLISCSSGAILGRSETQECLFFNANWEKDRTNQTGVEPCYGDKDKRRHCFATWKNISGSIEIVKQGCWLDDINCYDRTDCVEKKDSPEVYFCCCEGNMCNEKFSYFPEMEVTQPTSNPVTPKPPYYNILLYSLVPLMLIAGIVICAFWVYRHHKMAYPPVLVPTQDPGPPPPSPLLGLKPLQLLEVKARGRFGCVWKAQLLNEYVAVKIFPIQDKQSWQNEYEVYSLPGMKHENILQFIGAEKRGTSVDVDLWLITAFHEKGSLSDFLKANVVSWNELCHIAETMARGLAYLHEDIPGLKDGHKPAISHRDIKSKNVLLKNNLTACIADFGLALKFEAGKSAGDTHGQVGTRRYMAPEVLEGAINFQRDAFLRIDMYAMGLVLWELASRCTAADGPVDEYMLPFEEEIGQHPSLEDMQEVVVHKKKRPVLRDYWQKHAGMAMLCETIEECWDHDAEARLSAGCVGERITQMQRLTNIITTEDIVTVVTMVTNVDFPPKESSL
Sequence of UniProt P32298 (whole entry, looked up): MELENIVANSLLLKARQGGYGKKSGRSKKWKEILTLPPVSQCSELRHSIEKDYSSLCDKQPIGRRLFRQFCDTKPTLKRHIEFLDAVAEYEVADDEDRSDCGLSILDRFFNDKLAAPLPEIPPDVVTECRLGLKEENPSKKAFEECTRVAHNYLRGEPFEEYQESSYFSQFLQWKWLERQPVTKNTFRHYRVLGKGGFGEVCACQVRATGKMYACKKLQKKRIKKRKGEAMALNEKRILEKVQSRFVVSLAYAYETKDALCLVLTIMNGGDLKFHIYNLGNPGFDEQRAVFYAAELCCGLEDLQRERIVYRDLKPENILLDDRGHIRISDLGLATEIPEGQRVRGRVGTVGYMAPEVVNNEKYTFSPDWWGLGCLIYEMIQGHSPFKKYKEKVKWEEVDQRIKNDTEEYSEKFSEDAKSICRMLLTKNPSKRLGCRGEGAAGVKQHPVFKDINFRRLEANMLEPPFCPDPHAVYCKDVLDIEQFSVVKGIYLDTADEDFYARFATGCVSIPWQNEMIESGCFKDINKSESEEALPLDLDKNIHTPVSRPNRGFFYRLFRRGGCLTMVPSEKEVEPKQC

Study 1
Target: Calcium/calmodulin-dependent protein kinase type II subunit alpha (CAMK2A, Homo sapiens, UniProt Q9UQM7)
Sequence of UniProt Q9UQM7 (whole entry, looked up): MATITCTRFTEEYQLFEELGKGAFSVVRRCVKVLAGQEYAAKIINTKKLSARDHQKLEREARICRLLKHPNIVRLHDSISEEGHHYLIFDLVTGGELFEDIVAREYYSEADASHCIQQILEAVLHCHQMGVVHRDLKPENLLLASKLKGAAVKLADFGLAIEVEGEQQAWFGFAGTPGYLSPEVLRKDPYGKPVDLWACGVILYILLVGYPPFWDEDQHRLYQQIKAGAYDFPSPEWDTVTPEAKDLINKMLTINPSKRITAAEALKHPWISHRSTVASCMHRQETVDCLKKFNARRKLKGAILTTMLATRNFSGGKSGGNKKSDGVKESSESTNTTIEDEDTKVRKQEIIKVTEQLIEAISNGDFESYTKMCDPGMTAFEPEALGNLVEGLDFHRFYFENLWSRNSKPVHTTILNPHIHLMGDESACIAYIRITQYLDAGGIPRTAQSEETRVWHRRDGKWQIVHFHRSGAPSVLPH
Effect on: enzyme activity
Mode: inhibitor
Tested at: 10 µM
Quantity: inhibition
Structure (SMILES) = Nc1ccc(C(=O)O)cc1; result = -1%
Structure (SMILES) = C=CN1CCCC1=O; result = -1%
Structure (SMILES) = Nc1nc(O)c2ncn(COC(CO)CO)c2n1; result = -6%
Structure (SMILES) = CC(C)=CCC/C(C)=C/COc1c2ccoc2cc2oc(=O)ccc12; result = -20%
Structure (SMILES) = Nc1c2ccccc2nc2ccccc12; result = 16%
Structure (SMILES) = COc1ccc(-c2cc(=O)c3c(O)c(OC)c(O)cc3o2)cc1OC; result = 4%
Structure (SMILES) = COc1ccc(CC(=O)O)cc1O; result = -21%
Structure (SMILES) = COc1cc2c(cc1O)CC[C@@H]1[C@@H]2CC[C@]2(C)[C@@H](O)CC[C@@H]12; result = -18%
Structure (SMILES) = OCc1ccccc1; result = 14%
Structure (SMILES) = C[C@]1(COc2ccc(N3CCC(Oc4ccc(OC(F)(F)F)cc4)CC3)cc2)Cn2cc([N+](=O)[O-])nc2O1; result = -5%
Structure (SMILES) = CC(CN(C)C)CN1c2ccccc2Sc2ccccc21 (stereo not drawn); result = 3%
Structure (SMILES) = COc1ccc2cc1Oc1ccc(cc1)C[C@H]1c3c(cc4c(c3Oc3cc5c(cc3OC)CCN(C)[C@@H]5C2)OCO4)CCN1C; result = -7%
Structure (SMILES) = C[C@@H]1CN(c2c(F)c(N)c3c(=O)c(C(=O)O)cn(C4CC4)c3c2F)C[C@H](C)N1; result = -9%
Structure (SMILES) = Nc1nc(=O)[nH]cc1F; result = -5%

Study 2
SMILES: O=C1c2ccccc2-c2n[nH]c3cccc1c23
Effect on: enzyme activity
Mode: inhibitor
Tested at: 0.5 µM
Reference: control
Quantity: remaining activity
target = CLK3 (Homo sapiens, UniProt P49761); result = 38.6%
target = Cyclin-dependent kinase 9, with cyclin K (CDK9, Homo sapiens, UniProt P50750); result = 96%
target = NEK3 (Homo sapiens, UniProt P51956); result = 84.3%
target = MAP2K1 (Homo sapiens, UniProt Q02750); result = 96.4%
target = AKT2 (Homo sapiens, UniProt P31751); result = 96%
target = DCLK2 (Homo sapiens, UniProt Q8N568); result = 88.6%
target = CLK4 (Homo sapiens, UniProt Q9HAZ1); result = 75.5%
target = Cyclin-dependent kinase 1, with cyclin A (CDK1, Homo sapiens, UniProt P06493); result = 85.6%
target = MARK4 (Homo sapiens, UniProt Q96L34); result = 54%
target = MAPK1 (Homo sapiens, UniProt P28482); result = 95.8%
target = RPS6KA4 (Homo sapiens, UniProt O75676); result = 87.4%
target = MET (Homo sapiens, UniProt P08581); result = 112%
target = PLK3 (Homo sapiens, UniProt Q9H4B4); result = 99.6%
target = DDR2 (Homo sapiens, UniProt Q16832); result = 102%
target = ROCK1 (Homo sapiens, UniProt Q13464); result = 98.2%
target = PNCK (Homo sapiens, UniProt Q6P2M8); result = 102%
target = TXK (Homo sapiens, UniProt P42681); result = 73.4%
target = MAPK14 (Homo sapiens, UniProt Q16539); result = 97.9%
target = CAMK4 (Homo sapiens, UniProt Q16566); result = 92.9%
target = MARK2 (Homo sapiens, UniProt Q7KZI7); result = 59.9%
target = GRK4 (Homo sapiens, UniProt P32298); result = 96.6%
target = KDR (Homo sapiens, UniProt P35968); result = 89.9%
target = MINK1 (Homo sapiens, UniProt Q8N4C8); result = 67.7%
target = PAK3 (Homo sapiens, UniProt O75914); result = 90.7%

Study 3
SMILES: O=C(NC[C@@H]1[C@H]2CN(C(=O)OCc3cc(C(F)(F)F)cc(C(F)(F)F)c3)C[C@@H]12)c1ccc2[nH]nnc2c1
Tested at: 1 µM
Quantity: remaining binding
target = SIK1 (Homo sapiens, UniProt P57059); assay = competition binding; result = 100%
target = PRKG2 (Homo sapiens, UniProt Q13237); assay = cell-free assay, competition with immobilised ligand; result = 82%
target = EGFR (Homo sapiens, UniProt P00533, A750P/del747-749); assay = cell-free assay, competition with immobilised ligand; result = 89%
target = PKN2 (Homo sapiens, UniProt Q16513); assay = cell-free assay, competition with immobilised ligand; result = 93%
target = TEC (Homo sapiens, UniProt P42680); assay = cell-free assay, competition with immobilised ligand; result = 100%
target = KDR (Homo sapiens, UniProt P35968); assay = cell-free assay, competition with immobilised ligand; result = 96%
target = CSNK1E (Homo sapiens, UniProt P49674); assay = cell-free assay, competition with immobilised ligand; result = 100%
target = NEK7 (Homo sapiens, UniProt Q8TDX7); assay = cell-free assay, competition with immobilised ligand; result = 83%
target = DCLK2 (Homo sapiens, UniProt Q8N568); assay = cell-free assay, competition with immobilised ligand; result = 100%
target = RIPK4 (Homo sapiens, UniProt P57078); assay = cell-free assay, competition with immobilised ligand; result = 100%
target = FLT3 (Homo sapiens, UniProt P36888, K663Q); assay = cell-free assay, competition with immobilised ligand; result = 98%
target = RIOK3 (Homo sapiens, UniProt O14730); assay = cell-free assay, competition with immobilised ligand; result = 94%
target = WEE2 (Homo sapiens, UniProt P0C1S8); assay = cell-free assay, competition with immobilised ligand; result = 93%
target = STK39 (Homo sapiens, UniProt Q9UEW8); assay = cell-free assay, competition with immobilised ligand; result = 80%
target = EGFR (Homo sapiens, UniProt P00533, del747-752/P753S); assay = cell-free assay, competition with immobilised ligand; result = 83%
target = FLT3 (Homo sapiens, UniProt P36888); assay = cell-free assay, competition with immobilised ligand; result = 93%
target = ACVR2A (Homo sapiens, UniProt P27037); assay = cell-free assay, competition with immobilised ligand; result = 92%
target = CLK2 (Homo sapiens, UniProt P49760); assay = cell-free assay, competition with immobilised ligand; result = 86%
target = CAMK2D (Homo sapiens, UniProt Q13557); assay = cell-free assay, competition with immobilised ligand; result = 100%
target = TNNI3K (Homo sapiens, UniProt Q59H18); assay = cell-free assay, competition with immobilised ligand; result = 80%
target = ALK (Homo sapiens, UniProt Q9UM73, C1156Y); assay = cell-free assay, competition with immobilised ligand; result = 94%

Mixed results
SMILES = CC(C)n1cnc(-c2ccc(F)cc2)c1-c1ncc(C(=O)Nc2ccc(N3CCN(C)CC3)cc2)[nH]1; test system = IPF patients; setting = 60 mg once daily, adverse event; quantity = Arrhythmia incidence; result = 0%

Repeated from above (study 1):
Structure (SMILES) = Nc1ccc(C(=O)O)cc1; result = -1%
Structure (SMILES) = COc1ccc2cc1Oc1ccc(cc1)C[C@H]1c3c(cc4c(c3Oc3cc5c(cc3OC)CCN(C)[C@@H]5C2)OCO4)CCN1C; result = -7%
Structure (SMILES) = C[C@@H]1CN(c2c(F)c(N)c3c(=O)c(C(=O)O)cn(C4CC4)c3c2F)C[C@H](C)N1; result = -9%
Structure (SMILES) = Nc1nc(=O)[nH]cc1F; result = -5%
